Measurements collected from several papers.
“And” joins repeats or separate records; there may be more than shown. ± marks the error that the study gave.
UniProt Q96GX5, sequence (whole entry, looked up): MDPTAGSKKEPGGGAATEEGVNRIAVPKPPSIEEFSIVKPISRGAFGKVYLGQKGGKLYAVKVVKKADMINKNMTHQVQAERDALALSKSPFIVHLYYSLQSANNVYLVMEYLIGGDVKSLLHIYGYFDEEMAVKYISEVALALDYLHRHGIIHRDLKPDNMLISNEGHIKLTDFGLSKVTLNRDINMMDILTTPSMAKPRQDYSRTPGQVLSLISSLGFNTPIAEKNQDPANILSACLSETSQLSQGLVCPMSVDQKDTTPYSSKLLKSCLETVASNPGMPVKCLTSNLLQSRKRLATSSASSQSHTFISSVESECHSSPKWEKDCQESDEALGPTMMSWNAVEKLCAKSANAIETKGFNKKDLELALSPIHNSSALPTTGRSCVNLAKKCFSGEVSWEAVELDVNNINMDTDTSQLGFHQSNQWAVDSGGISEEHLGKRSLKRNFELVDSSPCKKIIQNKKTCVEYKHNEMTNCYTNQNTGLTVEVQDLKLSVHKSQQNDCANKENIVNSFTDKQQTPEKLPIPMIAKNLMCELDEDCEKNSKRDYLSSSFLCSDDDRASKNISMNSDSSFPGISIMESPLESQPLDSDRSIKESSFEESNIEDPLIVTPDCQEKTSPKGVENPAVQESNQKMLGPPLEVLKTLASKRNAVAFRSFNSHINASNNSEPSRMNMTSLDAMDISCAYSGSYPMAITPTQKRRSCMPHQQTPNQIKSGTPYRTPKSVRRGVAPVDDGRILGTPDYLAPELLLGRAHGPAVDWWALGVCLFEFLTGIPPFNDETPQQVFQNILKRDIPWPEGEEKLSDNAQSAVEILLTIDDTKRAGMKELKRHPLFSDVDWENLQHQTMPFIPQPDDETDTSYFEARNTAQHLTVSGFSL

C[C@H](Oc1ccc(Br)cc1-c1ccon1)C(=O)O: “difference from placebo” 0.06 mV (mean CMAP amplitude; human, tibialis anterior muscle; 400 mg, SAD).
For CC(C)c1c(C(=O)Nc2ccccc2)c(-c2ccccc2)c(-c2ccc(F)cc2)n1CC[C@@H](O)C[C@@H](O)CC(=O)O, “aortic wall plaque area” read 3.71 ± 0.22% (Oil Red O staining; ApoE-/- mouse on high-fat diet; oral gavage, 20 doses every three days, 72 h).
CC[C@@H]1[C@H](F)C(=O)N[C@@H]1COc1nccc2cc(C(N)=O)c(OC)cc12 has an inhibition of 16.1% (MASTL (Homo sapiens, UniProt Q96GX5); ATP-site probe binding, inhibitor, ActivX ATP probe profiling; THP-1 cell lysate; 0.01 mM, ATP loop site).
Under “muscle fibre type percentage”, C=C1CC[C@H](OCCCNC(=O)CCOCCOCCOCCOCCOCCOCCOCCOCCOCCOCCOCCOCCOCCOCCOCCOCCOCCOCCOCCOCCOCCOCCOCCOCCOCCOCCOCCOCCOCCOCCOCCOCCOCCOCCOCCOCCNC(=O)CCN2C(=O)CC(SC[C@H](NC(=O)[C@H](CCCNC(=N)N)NC(=O)[C@@H]3CCCN3C(=O)[C@H](CCC(N)=O)NC(=O)[C@H](CC(C)C)NC(=O)[C@H](CCCCN)NC(=O)[C@H](C)NC(=O)[C@@H]3CCCN3C(=O)[C@@H]3CCCN3C(=O)[C@H](CCCCN)NC(=O)[C@H](CCCCN)NC(=O)[C@H](CO)NC(=O)[C@H](CCC(=O)O)NC(=O)[C@H](CCCCN)NC(=O)[C@H](CCCNC(=N)N)NC(=O)[C@H](CCC(N)=O)NC(=O)[C@H](CCC(N)=O)NC(=O)[C@@H](NC(=O)[C@H](CCCNC(=N)N)NC(=O)[C@H](CCC(N)=O)NC(=O)[C@H](Cc3c[nH]cn3)NC(=O)[C@H](CCC(=O)O)NC(=O)[C@@H]3CCCN3C(=O)[C@H](CO)NC(=O)[C@H](CC(C)C)NC(=O)[C@H](Cc3ccccc3)NC(=O)[C@H](CNC(=O)CCCCCCC)NC(=O)[C@H](CO)NC(=O)CN)C(C)C)C(=O)O)C2=O)C/C1=C/C=C1\CCC[C@]2(C)[C@@H]([C@H](C)CCCC(C)(C)O)CC[C@@H]12 (stereo partly drawn) is recorded as “no effect” (immunohistochemistry, refers to: MyHC IIA, IIX, IIB fibres; mice, tibialis anterior; daily or every other day).
Under “pathway activation z-score”, Cn1cc(Nc2nccc(-c3ccc4c(c3)CN(C3COC3)CC[C@H]4NC(=O)c3cn(C(C)(C)C)nn3)n2)cn1 is recorded as -0.277 (refers to: pyrimidine ribonucleotide salvage; splenic B cells, mice; 30 mg/kg, IgD-activated in vivo; baseline: vehicle, direction not given).
The lag time of Cc1ccc(NC(=O)c2ccc(CN3CCN(C)CC3)cc2)cc1Nc1nccc(-c2cccnc2)n1 is reported as 142 s (platelet aggregation; platelet-rich plasma; 0.1 µM, DMSO 130.6, with: collagen 2 mg/mL).
CC(c1cc2ccccc2s1)N(O)C(N)=O (stereo not drawn) gave an amount of 65 ± 20 pg/mL blood (refers to: 15-HEPE; human whole blood; 3 µM, with: Escherichia coli).
COc1ccccc1[C@H](Cn1c(=O)n(C(C)(C)C(=O)O)c(=O)c2c(C)c(-c3ncco3)sc21)OC1CCOCC1 — result for “fractional hepatic DNL”: 5.9 % new palmitate ([1-13C]acetate infusion, isotopomer analysis; overweight or obese healthy men, plasma VLDL-TG palmitate; oral, 200 mg single dose, 2 h post-dose, with: oral fructose).
With CCCCCC1NCCc2cc(O)c(O)cc21 (stereo not drawn) the Fe2+ chelation was 30.5 ± 1.97% (ferrozine; DMSO; 100 µM).
For Cc1noc(C)c1-c1cc(C(O)(c2ccccn2)c2ccccn2)c2nc(C3CC3)[nH]c2c1, the maximum induction was 3.7% (refers to: HEXIM1 expression; human, peripheral blood; 0.6 mg, day 1, 1599 study).
For CC(C)NCC(O)c1ccc(O)c(O)c1 (stereo not drawn), the sarcomere length was 1.53 µm (ventricular cardiomyocytes, C57BL/6 mouse; dose not given, 0.564 s).
For c1ccc(-c2n[nH]cc2-c2ccnc3ccccc23)nc1, “log2 fold change” read 1.81 (kinase binding, competitor, MIB/MS competition, refers to: HST7; Candida albicans cell lysate; 10 µM; baseline: DMSO).
NC(=O)c1cnc2[nH]ccc2c1N[C@@H]1[C@@H]2CC3C[C@H]1C[C@@](O)(C3)C2 — result for “total memory T-cell change”: -0.42% (flow cytometry; Japanese healthy men, blood; oral, 30 mg twice daily, 72 h after day 7 dose; baseline: baseline).
Under “change in licking score”, CN(C(=O)n1cnc(-c2ccc[n+]([O-])c2)c1)C1CCCCC1 is recorded as -91% (mice, formalin paw test; 3 mg/kg, late phase, with: anandamide 5 mg/kg i.p.; baseline: vehicle, direction not given).
Cc1nn(-c2nc3c(F)cc(F)cc3s2)c(O)c1C(c1ccc(C(F)(F)F)cc1)c1c(C)nn(-c2nc3c(F)cc(F)cc3s2)c1O has an IL-6 level of 118 pg/mL and 117 pg/mL and 122 pg/mL and 95.6 pg/mL and 121 pg/mL and 111 pg/mL (ELISA; mouse, cerulein-induced acute pancreatitis, serum; dose not given, 8 h).
C=CCn1c(=O)c2cnc(Nc3ccc(N4CCN(C)CC4)cc3)nc2n1-c1ccc2c(n1)[C@@](O)(CC)CC2 — result for “tumour growth inhibition”: 133% (MCF7 xenograft, BALB/c nude mice; oral, 80 mg/kg once daily x 22, day 28; baseline: vehicle).
CN[C@@H]1COc2c(S(=O)(=O)NC(=O)Nc3c4c(cc5c3CCC5)CCC4)cnn2C1 has an inhibition of 97.8% (refers to: IL-18; human participants, whole blood ex vivo; 300 mg twice daily, multiple doses, 152 h, IL-18, circulating, adjusted for, with: LPS/ATP; baseline: baseline).
COc1cc2cc(-c3ccc(CC(=O)Nc4cc(C(C)(C)C(F)(F)F)no4)cn3)cnc2cc1OC — result for “stable disease as best response”: 53% (human RET fusion-positive NSCLC; 75 mg, phase I, RECIST 1.1).
For Cc1cn(-c2ccc3n(c2=O)CCN([C@@H](C)[C@@H]2CC[C@H](c4cc(F)c(Cl)cc4C(F)(F)F)O2)C3=O)cn1, “change from baseline” read 44.6% (refers to: amyloid beta 38; human, non-elderly, cerebrospinal fluid; 360 mg once daily, 14 days, sampled 336 h; baseline: placebo).
With O=C(O)CNC(=O)Cc1ccccc1 the sarcomere length was 1.72 µm (ventricular cardiomyocytes, C57BL/6 mouse; dose not given, 0.768 s).
Cn1cc(-c2ccc(-c3cncc(Cl)c3N3CCC4(CCNC4=O)CC3)cc2)cn1 — result for “log2 fold change”: 1.02 (COLO 205; gene expression, microarray, refers to: SOX8 mRNA; concentration not given, 6 h; baseline: untreated cells).
Nc1nc2cc(-c3ccc4ncc(C(=O)N5CCOCC5)n4c3)ccc2o1 — result for “patients with stable disease”: 28% (RECIST v1.1; human advanced solid tumours, PIK3CA mutant; concentration not given, stable ≥3 months, all schedules).
For N#Cc1ccc2c(-c3ccncc3)c(-c3ccc(F)cc3)nn2c1, “log2 fold change” read -0.161 (kinase binding, competitor, MIB/MS competition, refers to: YPK1; Candida albicans cell lysate; 10 µM; baseline: DMSO).
C=CC(=O)Nc1cc(Nc2ncc(C(=O)OC(C)C)c(-c3cn(C)c4ccccc34)n2)c(OC)cc1N(C)CCN(C)C: “responders with duration ≥ 6 months” 59% (EGFR-mutant NSCLC patients; dose not given).
The LVSP of O=C(/C=C/c1ccc(O)c(O)c1/C=C/c1ccc(O)c(O)c1)O[C@H](Cc1ccc(O)c(O)c1)C(=O)O is reported as 55.3 mmHg (isolated myocardial tissue; 10 µM).
O=C(/C=C\n1cnc(-c2cc(C(F)(F)F)cc(C(F)(F)F)c2)n1)NNc1cnccn1 — result for “median overall survival”: 134 days (C57BL/6 mice, Eµ-TCL1 CLL transplant; 15 mg/kg, 2 times per week).
For NC1(C(=O)N[C@@H](CCO)c2ccc(Cl)cc2)CCN(c2nc[nH]c3nccc2-3)CC1, “CTC conversion response rate” read 37.5% (human mCRPC patients; dose not given, includes non-confirmed conversions, with: enzalutamide).
Under “ATF4 protein change”, O=C(COc1ccc(Cl)cc1)NC12CC(c3nnc([C@H]4C[C@@H](OC(F)(F)F)C4)o3)(C1)C2 is recorded as -64% (healthy human, PBMC; 100 mg once daily, day 14, 4 h post-dose, median, with: sodium arsenite ex vivo; baseline: baseline).
Cc1n[nH]c2ccc(-c3cc(OC[C@@H](N)Cc4ccccc4)cnc3-c3ccoc3)cc12: “log2 fold change” -0.154 (kinase binding, competitor, MIB/MS competition, refers to: KIN2; Candida albicans cell lysate; 10 µM; baseline: DMSO).
Under “time to maximum prothrombin time”, C[C@@H](NC(=O)N1C(=O)[C@H](Cc2ccnc(N)c2)[C@H]1C(=O)O)C1CCCCC1 is recorded as 5 h (human, plasma; continuous intravenous infusion, 2.25 mg/kg/h, days 1 to 6 of 5-day infusion, median).
CCN1CCN(Cc2ccc(Nc3ncc(F)c(-c4cc(F)c5nc6n(c5c4)[C@H](C)CCC6)n3)nc2)CC1 — result for “not evaluable tumour response”: 0% (Phase Ia, RECIST v1.1; patients with advanced solid tumours; dose not given, monotherapy, all doses).
With CC1(C)CCC(CN2CCN(c3ccc(C(=O)NS(=O)(=O)c4ccc(NCC5CCOCC5)c([N+](=O)[O-])c4)c(Oc4cnc5[nH]ccc5c4)c3)CC2)=C(c2ccc(Cl)cc2)C1 the EC50 was 0.167 µM (cell killing; canine blood CD3+ T cells, dog 32; 24 h).
For C[C@@H]1CCC[C@H](n2cnc(-c3cc(Cl)ccc3-n3cc(Cl)nn3)cc2=O)c2cc(ccn2)-c2c(cnn2C(F)F)NC1=O, “concentration for aPTT prolongation” read 30 nM (pooled normal human plasma; IC1.2× aPTT, Actin FS reagent).
For NCC(=O)Nc1cncc(-c2nn3c(=O)cc(N4CCNCC4)nc3s2)c1, the inhibition was 88.9% (ADP-induced platelet aggregation, light transmission aggregometry; human, stable CAD on aspirin, platelets ex vivo; subcutaneous, 0.075 mg/kg, 15 min post-dose, with: ADP 20 µM).
For Cn1cc([C@H]2C[C@H]3CSC(N)=N[C@@]3(c3ccc(F)cc3F)CO2)cn1, the Aβ40 level was 0.1 ng/g (refers to: Aβx-40; wild-type mouse, plasma; subcutaneous, 3 mg/kg, 3 h).
For O=C1Nc2cc3[nH]nc(-c4ccncc4)c3cc2CN1Cc1ccccc1, “complete response, best response” read 0% (RECIST v1.1; human, relapsed or refractory advanced solid tumours; intravenous, 7.2 mg/kg, pooled schedules).
Under “total urinary corticosteroid excretion”, N#Cc1ccc2c(c1)[C@H]1CCCN(C(=O)c3ccc4[nH]cnc4c3)[C@H]1C2 is recorded as 158% (T2DM patients with overweight or obesity, urine; oral, 20 mg, day 1, 0-24 h, multiple dosing, adjusted geometric mean; baseline: baseline day -1, -24-0 h).
For CN(C)C(=O)c1cc2cnc(Nc3ccc(N4CCNCC4)cn3)nc2n1C1CCCC1, “GSEA enrichment score” read 0.409 (RNA-seq GSEA, refers to: HALLMARK_DNA_REPAIR; MB002 tumour; concentration not given, in vivo; baseline: vehicle, direction not given).
For C[C@H]1C[C@H]2CSC(N)=N[C@@]2(c2nc(NC(=O)c3ccc(OC(F)F)cn3)cs2)CO1, “percent change from baseline” read -36.4% (refers to: total Aβ; healthy adults, plasma; 3 mg single dose, 8 h post-dose; baseline: placebo).
Under “patients with IPA above 90%”, CC(=O)Oc1cc2c(s1)CCN(C(C(=O)C1CC1)c1ccccc1F)C2 (stereo not drawn) is recorded as 0% (platelet aggregation, light transmission aggregometry; human patients, platelet-rich plasma; dose not given, 2 h, with: TRAP 5 µM).
Under “change from baseline”, N#Cc1ccc2c(c1)[C@H]1CCCN(C(=O)c3ccc4[nH]cnc4c3)[C@H]1C2 is recorded as 17.9 mg/dL (refers to: 2 h postprandial glucose; human, Phase II trial; oral, 20 mg once daily, day 28, adjusted mean, SE).
CCCCCCCCC1NCCc2cc(O)c(O)cc21 (stereo not drawn) gave a Fe2+ chelation of 30.7 ± 1.66% (ferrozine; cell-free; 100 µM, DMSO solvent).
For Cc1ccc(C(=O)OCc2ccc([C@@H](CN)C(=O)Nc3ccc4cnccc4c3)cc2)c(C)c1, the intraocular pressure was 20 mmHg (normotensive Macaca cyclopis, right eye; 0.02 %, pre-dose).
For OC(CCN1CCCCC1)(c1ccccc1)C1CC2C=CC1C2 (stereo not drawn), “EEG Alpha1-power Fz-Cz” read 4.7 µV² (resting-state EEG; healthy elderly humans; oral, 2 mg, eyes closed, LS mean).
COc1cc(-c2ccccc2)ncc1C(=O)Nc1ccc2c(=O)[nH]c(-c3ccc(C(C)(C)O)cc3)nc2c1: “normalized enrichment score” 1.83 (RNA-seq GSEA, refers to: HALLMARK_BILE_ACID_METABOLISM; organoids, small intestinal, Apc Q1405X, mouse; dose not given, 3 days, knockout organoids; baseline: DMSO, direction not given).

Some of these lines once more:
For Cc1ccc(C(=O)OCc2ccc([C@@H](CN)C(=O)Nc3ccc4cnccc4c3)cc2)c(C)c1, the intraocular pressure was 20 mmHg (normotensive Macaca cyclopis, right eye; 0.02 %, pre-dose).
The LVSP of O=C(/C=C/c1ccc(O)c(O)c1/C=C/c1ccc(O)c(O)c1)O[C@H](Cc1ccc(O)c(O)c1)C(=O)O is reported as 55.3 mmHg (isolated myocardial tissue; 10 µM).
For Cc1cn(-c2ccc3n(c2=O)CCN([C@@H](C)[C@@H]2CC[C@H](c4cc(F)c(Cl)cc4C(F)(F)F)O2)C3=O)cn1, “change from baseline” read 44.6% (refers to: amyloid beta 38; human, non-elderly, cerebrospinal fluid; 360 mg once daily, 14 days, sampled 336 h; baseline: placebo).
Under “time to maximum prothrombin time”, C[C@@H](NC(=O)N1C(=O)[C@H](Cc2ccnc(N)c2)[C@H]1C(=O)O)C1CCCCC1 is recorded as 5 h (human, plasma; continuous intravenous infusion, 2.25 mg/kg/h, days 1 to 6 of 5-day infusion, median).
Under “change from baseline”, N#Cc1ccc2c(c1)[C@H]1CCCN(C(=O)c3ccc4[nH]cnc4c3)[C@H]1C2 is recorded as 17.9 mg/dL (refers to: 2 h postprandial glucose; human, Phase II trial; oral, 20 mg once daily, day 28, adjusted mean, SE).
